Published values gathered from unrelated publications.
Protocols differ between the studies behind these lines. pEC50: −log10 of the molar value.

SMILES	organism	assay	test system	setting	endpoint	result
Cc1cc(C)c(C#N)c(SCC(=O)N2CCN(C)CC2)n1	Trypanosoma brucei	parasite growth, resazurin	RHODESIENSE		pEC50	< 4.19
CC(=O)OC[C@H](OC(C)=O)[C@H](OC(C)=O)[C@@H](OC(C)=O)[C@@H]1OC[C@@]2(C)[C@@H]3CC[C@]4(C)[C@H](CC=C5[C@@H]6CC(C)(C)CC[C@]6(C(=O)O)CC[C@]54C)[C@@]3(C)CC[C@@H]2O1	Leishmania mexicana	parasite growth, resazurin		50 µM, amastigote	inhibition	95.8%
O=c1cc(-c2ccc(O)cc2)oc2cc(O)cc(O)c12	Helicobacter pylori	microbial growth, broth dilution		0.48 µg/mL	inhibition	51.1%
Cc1cc(C)c(C#N)c(SCC(=O)c2ccccc2)n1	Trypanosoma brucei	parasite growth, resazurin			pEC50	4.28
CC1(C)CC[C@]2(CO)CC[C@]3(C)C(=CC[C@@H]4[C@@]5(C)CC[C@@H]6O[C@H]([C@H](O)[C@@H](O)[C@@H](O)CO)OC[C@@]6(C)[C@@H]5CC[C@]43C)[C@@H]2C1	Leishmania mexicana	parasite growth, resazurin		50 µM, amastigote	inhibition	100%
Cc1cc(C)c(C#N)c(SCC(N)c2ccccc2)n1 (stereo not drawn)	Trypanosoma brucei	parasite growth, resazurin			pEC50	4.83
CN(Cc1ccc(C2(C(F)(F)F)CC2)cc1)Cc1cccc2ccccc12	Trichophyton mentagrophytes	microbial growth, disc diffusion	ATCC18748	0.004 µg/mL, 72 h	inhibition zone	22.5 mm
COc1ccc(-c2cc(=O)c3c(O)cc(O[C@@H]4O[C@H](CO)[C@@H](O)[C@H](O)[C@H]4O)cc3o2)cc1O	Helicobacter pylori	microbial growth, broth dilution		31.25 µg/mL	inhibition	100%
CC1(C)CC[C@]2(C(=O)OCC(=O)c3ccccc3)CC[C@]3(C)C(=CC[C@@H]4[C@@]5(C)CC[C@H](O)[C@@](C)(CO)[C@@H]5CC[C@]43C)[C@@H]2C1	Leishmania mexicana	parasite growth, resazurin		50 µM, amastigote	inhibition	98.4%
COc1cccc(C(=O)C[S+]([O-])c2nc(C)cc(C)c2C#N)c1 (stereo not drawn)	Trypanosoma brucei	parasite growth, resazurin	RHODESIENSE		pEC50	4.51
O=C(O)c1ccc(O)cc1	Helicobacter pylori	microbial growth, broth dilution		7.81 µg/mL	inhibition	100%
Cc1cc(C)c(C#N)c(SCC(=O)c2ccc(F)cc2F)n1	Trypanosoma brucei	parasite growth, resazurin			pEC50	< 4.19
COc1cc(-c2cc(=O)c3c(O)cc(O)cc3o2)ccc1O	Helicobacter pylori	microbial growth, broth dilution		15.63 µg/mL	inhibition	100%
CN(C)CCCNC(=O)N[C@]12CCC(C)(C)C[C@H]1C1=CC[C@@H]3[C@@]4(C)CC[C@@H]5OC(C)(C)OC[C@@]5(C)[C@@H]4CC[C@@]3(C)[C@]1(C)CC2	Leishmania mexicana	parasite growth, resazurin		50 µM, amastigote	inhibition	97.1%
COc1cc([C@H]2OC[C@H]3[C@@H]2CO[C@@H]3c2cc(OC)c(O)c(OC)c2)cc(OC)c1O	Helicobacter pylori	microbial growth, broth dilution		0.24 µg/mL	inhibition	52%
CN(Cc1ccc(C(C)(C)C)cc1)Cc1cccc2ccccc12	Trichophyton mentagrophytes	microbial growth, disc diffusion	ATCC18748	0.128 µg/mL, 72 h	inhibition zone	≥ 55 mm
C=C[C@@]1(C)C=C2CC[C@@H]3[C@](C)(CCC[C@@]3(C)C(=O)O)[C@H]2CC1	Helicobacter pylori	microbial growth, broth dilution		62.5 µg/mL	inhibition	100%
Cc1cc(C)c(C#N)c(SCC(=O)N2CCOCC2)n1	Trypanosoma brucei	parasite growth, resazurin			pEC50	< 4.19

For quick reference, copied from above:
SMILES	organism	assay	test system	setting	endpoint	result
Cc1cc(C)c(C#N)c(SCC(=O)c2ccc(F)cc2F)n1	Trypanosoma brucei	parasite growth, resazurin			pEC50	< 4.19
COc1cc(-c2cc(=O)c3c(O)cc(O)cc3o2)ccc1O	Helicobacter pylori	microbial growth, broth dilution		15.63 µg/mL	inhibition	100%
CN(C)CCCNC(=O)N[C@]12CCC(C)(C)C[C@H]1C1=CC[C@@H]3[C@@]4(C)CC[C@@H]5OC(C)(C)OC[C@@]5(C)[C@@H]4CC[C@@]3(C)[C@]1(C)CC2	Leishmania mexicana	parasite growth, resazurin		50 µM, amastigote	inhibition	97.1%
